Experimental data gathered from unrelated publications.
Parts stem from different laboratories: compare values within a part only.

Sample 1
Target: Interferon regulatory factor 3, full length, phosphomimetic (IRF3, Homo sapiens, UniProt Q14653, residues 1-427, S386D/S396D/S398D/S402D/T404D/S405D)
UniProt Q14653, sequence (whole entry, unmodified, looked up): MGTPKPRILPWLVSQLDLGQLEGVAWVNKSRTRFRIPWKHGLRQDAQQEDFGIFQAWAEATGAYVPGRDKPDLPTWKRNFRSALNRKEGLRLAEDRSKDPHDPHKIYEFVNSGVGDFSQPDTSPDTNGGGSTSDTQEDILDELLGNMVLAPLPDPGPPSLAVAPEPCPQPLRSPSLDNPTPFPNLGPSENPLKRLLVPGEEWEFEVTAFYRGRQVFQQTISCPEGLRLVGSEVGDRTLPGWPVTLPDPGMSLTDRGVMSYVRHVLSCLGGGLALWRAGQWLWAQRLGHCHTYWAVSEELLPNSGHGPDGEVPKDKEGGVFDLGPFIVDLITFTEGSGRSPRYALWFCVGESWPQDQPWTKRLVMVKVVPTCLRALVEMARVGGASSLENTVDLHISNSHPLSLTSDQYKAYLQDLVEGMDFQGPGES
Method: protein-binding microarray
Molecule type: double-stranded DNA, one strand shown
Medium: in vitro
Tested at: 2540 nM top
Notes: 60-bp whole probe
With: salmon DNA 0.4 mg/ml
Reference: random background probes
Reading: higher = stronger binding
Quantity: fitted relative affinity
Constant ends, left off below: GCCTAGCAC … GTCTTGATTCGCTTGACGCTGCTG
Strand = TTAGGTCTCCTTCTCCTTCAGTGCTAG; result = 4.05 z-score
Strand = TTAGGACCGGGTCTCGGTTAGTGCTAG; result = -0.214 z-score
Strand = TTAGGACTTCTTCTCCTTTAGTGCTAG; result = 0.574 z-score
Strand = TTAGTTTTCAGACTGGATTAGTGCTAG; result = 2.53 z-score
Strand = TTCTGAGCCTGGGTGGATGGGTGCTAG; result = -0.727 z-score
Strand = CTGGGTATTTTTCTAAACCAGTGCTAG; result = 0.659 z-score
Strand = TTAGGTTTCGGGTATCGGTTAGTGCTA; result = 4.39 z-score
Strand = TCACTTCTCTTTTGGCTACTGTGCTAG; result = 2.64 z-score
Strand = TTAGGTCTCAGTTTCGATTAGTGCTAG; result = 4.31 z-score
Strand = GACGGTCTGCTTCTCCTGACGTGCTAG; result = 0.0423 z-score

Sample 2
Target: Sal-like protein 4, full length isoform A (SALL4, Homo sapiens, UniProt Q9UJQ4, residues 1-1053)
UniProt Q9UJQ4, sequence (whole entry, looked up): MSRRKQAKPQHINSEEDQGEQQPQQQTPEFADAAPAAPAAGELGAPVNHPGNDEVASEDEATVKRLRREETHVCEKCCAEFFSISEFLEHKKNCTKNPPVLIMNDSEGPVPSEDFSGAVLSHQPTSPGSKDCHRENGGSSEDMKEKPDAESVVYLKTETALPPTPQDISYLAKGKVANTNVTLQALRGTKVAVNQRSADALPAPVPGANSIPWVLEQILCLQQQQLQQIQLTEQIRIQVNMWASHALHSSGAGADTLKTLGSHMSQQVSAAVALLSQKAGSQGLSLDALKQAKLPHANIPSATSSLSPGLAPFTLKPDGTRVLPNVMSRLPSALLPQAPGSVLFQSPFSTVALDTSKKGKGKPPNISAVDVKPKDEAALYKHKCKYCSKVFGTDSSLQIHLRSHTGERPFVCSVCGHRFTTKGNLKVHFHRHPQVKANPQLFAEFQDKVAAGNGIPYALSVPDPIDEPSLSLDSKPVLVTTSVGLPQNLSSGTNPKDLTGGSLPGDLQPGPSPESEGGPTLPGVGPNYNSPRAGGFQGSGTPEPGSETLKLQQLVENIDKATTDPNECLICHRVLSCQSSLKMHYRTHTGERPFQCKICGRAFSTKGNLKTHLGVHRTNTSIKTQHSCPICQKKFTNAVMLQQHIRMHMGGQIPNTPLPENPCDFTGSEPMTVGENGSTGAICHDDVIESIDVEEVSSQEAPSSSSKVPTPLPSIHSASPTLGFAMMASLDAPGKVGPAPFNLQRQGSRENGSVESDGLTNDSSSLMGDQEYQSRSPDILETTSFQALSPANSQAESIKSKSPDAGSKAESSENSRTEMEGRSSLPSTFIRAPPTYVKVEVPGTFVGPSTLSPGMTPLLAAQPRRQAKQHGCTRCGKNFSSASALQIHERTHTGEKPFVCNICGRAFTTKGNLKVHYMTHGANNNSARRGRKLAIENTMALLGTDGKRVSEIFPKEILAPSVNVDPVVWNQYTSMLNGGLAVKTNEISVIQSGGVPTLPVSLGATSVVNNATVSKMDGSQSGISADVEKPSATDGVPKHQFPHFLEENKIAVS
Method: universal PBM
Molecule type: double-stranded DNA, one strand shown
Medium: in vitro
Tested at: 600 nM
Notes: 8-mer, flanks averaged, mean of replicates
Reading: higher = stronger binding
Quantity: E-score
Strand = ACCAGTCA; result = -0.0961
Strand = ATTCTCGA; result = 0.0673
Strand = AATCTTGA; result = 0.188
Strand = GACACAAA; result = 0.0734
Strand = GGGCCACC; result = -0.396
Strand = AGTTAAAT; result = 0.269
Strand = AAGTACGA; result = 0.19
Strand = AAGGGCCT; result = -0.256
Strand = ATCGAATG; result = 0.194

Sample 3
Target: Histone acetyltransferase KAT6A, winged helix 1, GST fusion (KAT6A, Homo sapiens, UniProt Q92794, residues 1-85)
Method: protein binding microarray
Molecule type: double-stranded DNA, one strand shown
Medium: in vitro
Tested at: not given
Notes: 8-mer, flanks averaged, mean of 2 arrays, mostly near background
Reference: not given
Reading: higher = stronger binding
Quantity: E-score
Residues (chain): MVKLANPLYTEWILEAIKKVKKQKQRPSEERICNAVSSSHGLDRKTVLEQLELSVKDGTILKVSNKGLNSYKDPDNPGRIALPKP
Strand = CGCATGAA; result = 0.0736
Strand = ACGACCCG; result = 0.296
Strand = GTAAACAC; result = 0.117
Strand = GATCGGCA; result = 0.141
Strand = ATTGCTGG; result = -0.0707
Strand = CTAATAAA; result = -0.044
Strand = CGCCTGTC; result = 0.147
Strand = ACGGAACG; result = 0.248
Strand = AGATTCCG; result = 0.0997
Strand = CAGTAGAC; result = 0.03
Strand = AATAAGAT; result = -0.131

Sample 4
Molecule: PhoQ, residues 284 288 289 292 302 303 SLSLLA
Method: Sort-seq
Refers to: YFP reporter
Medium: E. coli
Notes: PhoQ-PhoP variant library
With: 10 µM Mg2+
Reference: high Mg2+ state
Reading: higher = stronger signaling
Quantity: fold induction
target = PhoP, residues 12 14 15 18 19 QYFSL (Escherichia coli, UniProt P23836); result = 14.5
target = PhoP, residues 12 14 15 18 19 NYFRM (Escherichia coli, UniProt P23836); result = 10.6
target = PhoP, residues 12 14 15 18 19 TQALL (Escherichia coli, UniProt P23836); result = 1.47

For quick reference, copied from above (sample 1):
Strand = TTAGGTCTCCTTCTCCTTCAGTGCTAG; result = 4.05 z-score
Strand = TTAGGACTTCTTCTCCTTTAGTGCTAG; result = 0.574 z-score
Strand = TTAGGTCTCAGTTTCGATTAGTGCTAG; result = 4.31 z-score
Strand = TTAGGACCGGGTCTCGGTTAGTGCTAG; result = -0.214 z-score
Strand = TCACTTCTCTTTTGGCTACTGTGCTAG; result = 2.64 z-score
